Values quoted from earlier work, collected from citations in different studies.
± gives the spread as reported.

O=C(Nc1cccc2cccnc12)c1ccc(N2C(=O)[C@@H]3[C@H](C2=O)[C@@H]2C=C[C@H]3C2)cc1: “maximal efficacious concentration” 4 µM (H9 hESC MYH6-mCherry reporter; cardiomyocyte differentiation).
Under “mitotic index reduction”, Cl.c1csc(CNc2cc[nH]n2)c1 is recorded as at least 50% (human peripheral blood lymphocytes; ≥216 µg/mL, 20 + 0 h, range-finding, without S9; relative to: vehicle).
`FGF-1` has a doubling time of 1 to 2 days (Schwann cells; with: 5 to 10 µM forskolin).
Cc1cc(=O)oc2cc(O)ccc12: “no effect concentration” over 1 mM (human fibroblasts; measured: chondroitin and dermatan sulfate synthesis; up to).
With COC(=O)c1ccc(CCc2cc(O)ccc2O)cc1 the GI50 was 7970 nM (NCI-60 panel; cell growth).
C[C@@]12CC=C3c4ccc(O)cc4CC[C@@H]3[C@H]1CC[C@H]2O gave an EC50 of 488 nM (HT-22; cell protection; with: glutamate 10 mM).
CN(C)c1ccc2nc3ccc(=[N+](C)C)cc-3sc2c1 has a Ki of 120 nM (cell model; tau aggregation).
The EC50 of C[C@]12CC[C@@H]3c4cc(C56CC7CC(CC(C7)C5)C6)c(O)cc4CC[C@H]3[C@@H]1CC[C@@H]2O is reported as 120 nM (HT-22; cell protection; with: iodoacetic acid 20 µM).
`VGGVVIA` gave a viability of 80 ± 3% (differentiated PC-12; Aβ42-induced toxicity, inhibitor, MTT; peptide; 10-fold excess over Aβ42, 15 h, with: Aβ42 5 µM).
The effective concentration of `Thrombospondin-1` is reported as under 20 nM (endothelial cells; endothelial cell migration, inhibitor).
C[C@]12CC[C@@H]3c4ccc(O)cc4CC[C@H]3[C@@H]1CCC2=O has an EC50 of 3030 nM (HT-22; cell protection; with: glutamate 10 mM).
With CC(=O)c1cccc(N[C@H]2[C@H](N)[C@@](NC(=O)N(C)C)([C@H](C)O)[C@@](C)(O)[C@@]2(O)COC(=O)c2c(C)cccc2O)c1 the GI50 was under 100 nM (RXF 393 (renal cancer); cell growth; NCI screen data).
C[C@]12CC[C@@H]3c4ccc(O)cc4CC[C@H]3[C@@H]1CC[C@@H]2O gave an EC50 of 4700 nM (HT-22; cell protection; with: iodoacetic acid 40 µM).
With Nc1nc2[nH]c(CCCCCCc3ccc(C(=O)N[C@@H](CCC(=O)O)C(=O)O)cc3)cc2c(=O)[nH]1 the IC50 was over 1000 nM (CHO D4, human FRβ-expressing; cell growth; with: folic acid 200 nM).
C[C@]12CC[C@@H]3c4ccc(O)cc4CC[C@H]3[C@@H]1CC1(CCCC1)C2=O has an EC50 of 8260 nM (HT-22; cell protection; with: iodoacetic acid 40 µM).
CNC(=O)c1cc(Oc2ccc(NC(=O)Nc3ccc(Cl)c(C(F)(F)F)c3)cc2)ccn1 has a GI50 of 2330 nM (NCI Breast cancer cell panel; mean graph midpoint).
C[C@]12CC[C@@H]3c4ccc(O)cc4CC[C@H]3[C@@H]1CC[C@@H]2OC(=O)c1ccccc1 has an EC50 of 8810 nM (HT-22; cell protection; with: iodoacetic acid 40 µM).
The viability of `MVGGVVIA` is reported as 82 ± 4% (differentiated PC-12; Aβ42-induced toxicity, inhibitor, MTT; peptide; 10-fold excess over Aβ42, 15 h, with: Aβ42 5 µM).

Repeated from above:
CNC(=O)c1cc(Oc2ccc(NC(=O)Nc3ccc(Cl)c(C(F)(F)F)c3)cc2)ccn1 has a GI50 of 2330 nM (NCI Breast cancer cell panel; mean graph midpoint).
C[C@]12CC[C@@H]3c4ccc(O)cc4CC[C@H]3[C@@H]1CC[C@@H]2OC(=O)c1ccccc1 has an EC50 of 8810 nM (HT-22; cell protection; with: iodoacetic acid 40 µM).
The viability of `MVGGVVIA` is reported as 82 ± 4% (differentiated PC-12; Aβ42-induced toxicity, inhibitor, MTT; peptide; 10-fold excess over Aβ42, 15 h, with: Aβ42 5 µM).
